Published values collected from several papers.
Each numbered part is a random draw from the data of one study; scales do not carry over between parts. Changes are numbered by the printed parent chain.

Block 1
Target: RING finger protein unkempt homolog, zinc fingers 1-6, GST-SBP tag (UNK, Homo sapiens, UniProt Q9C0B0, residues 30-357)
UniProt Q9C0B0, sequence (30-357, looked up): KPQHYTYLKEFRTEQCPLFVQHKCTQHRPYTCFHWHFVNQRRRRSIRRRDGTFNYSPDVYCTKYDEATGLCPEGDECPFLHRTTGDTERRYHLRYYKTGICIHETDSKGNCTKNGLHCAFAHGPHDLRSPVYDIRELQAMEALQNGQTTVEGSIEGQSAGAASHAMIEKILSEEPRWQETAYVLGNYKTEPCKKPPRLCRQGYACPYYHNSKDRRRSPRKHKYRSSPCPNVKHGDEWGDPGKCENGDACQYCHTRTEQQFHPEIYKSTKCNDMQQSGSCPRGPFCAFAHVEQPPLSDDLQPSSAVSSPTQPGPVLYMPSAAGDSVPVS
Technique: RNA Bind-n-Seq
Form: RNA
Matrix: in vitro
Concentration: not given
Setting: RNA with constant flanks, human-mouse chimeric sites, ends assumed
Relative to: input RNA pool
Reading: higher = stronger binding
Quantity: bound/input enrichment
Shared flanks, not repeated: GGGAGUUCUACAGUCCGACGAUC … CAACAGAGGAUUGAGCAUCA
Oligonucleotide = GAGUCGAUUAUGGAAACAACAAUUCGUUAUCUUGCAGCCUCAGUGUUCACUUGCUUGUGGCAAUAGCUGGGGUUUUAUAGGUUCUGGAAGGAGAACUGACGAUGAUGCUGCCGCUGCUGC; result = 0.256 ratio
Oligonucleotide = GUGACUGGUGUUAAGAUUUCCCCUCAGCAAAGAAGUGCAGUAGUCACCAUAAUUCCAUCUAUAGUGAGUGCCAGUCAGAUUGUGGAGCUGGUCCCAGACCUCAGUUUAGACAUGGGAACU; result = 1.03 ratio
Oligonucleotide = GUGACUGGUGUUAAGAUUUCCCCUCAGCAAAGAAGUGCAGUAGUCACCAUAAUUCCAUCUAUAGUGAGUGCCAGUCAGAUUGUGGAGCUGGUUCCAGACCUCAGUUUAGACAUGGGAACU; result = 0.408 ratio
Oligonucleotide = CAGUCCCCGUGUCCCAGUGCAGGACGAUGUGAACAAAAACUCAAAGCGGACCCUCUACUGUAGUUGAUGAUUCUCGAAAUGUGCUAUUAUUGUUUGUCUUUUUUUUUAAAAGAAAAGAGA; result = 0.344 ratio
Oligonucleotide = GAUCAUGAACCACCAUCAGAAAUGAAGAUGAGAUUACCCAGACGAGCCCAAAACCGCGCGCUACAGAAAAAGUAAACUAACCUUGCAGAGUUCCUUAAUGAAGAUACAAGUUAAGAGAGC; result = 0.208 ratio
Oligonucleotide = GAAACUAUUCCUAAAGAGGAGAAAGCUGAAAAGGAAGCUCGGAGACCAUCUCUUGAGAAACAUAGAAAAGAAAAGCCUUUUAAAACCGGGAGAGGCAGAAUUUCCACUCCUGAAAGAAAA; result = 0.527 ratio
Oligonucleotide = UCUGGUCACACUCGUGUAUAUGGUGUGUGCUUUGUGGACACUUCACUGGGCAAGUUUUUCAUCGGCCAGUUUUCAGAUGACCGCCACUGUUCCAGAUUUAGGACGCUAGUGGCUCACUAU; result = 0.227 ratio
Oligonucleotide = AUCAAAUACUUUGGGGACAUCAUUAGUGUGGGACAGAGACUGUUGCAAGGAGCUCGGAUCUUAGGGAUUCCAGUUAUUGUAACAGAACAAUACCCCAAAGGUCUUGGCAGCACCGUUCAA; result = 0.132 ratio

Block 2
Target: Histone acetyltransferase KAT6A, winged helix 1, GST fusion (KAT6A, Homo sapiens, UniProt Q92794, residues 1-85)
Technique: protein binding microarray
Form: double-stranded DNA, one strand shown
Matrix: in vitro
Concentration: not given
Setting: 8-mer, flanks averaged, mean of 2 arrays, mostly near background
Relative to: not given
Reading: higher = stronger binding
Quantity: E-score
Residues (chain): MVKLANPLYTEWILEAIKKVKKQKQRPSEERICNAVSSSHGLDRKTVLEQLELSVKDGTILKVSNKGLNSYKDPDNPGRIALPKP
Oligonucleotide = ACTTTAAC; result = -0.202
Oligonucleotide = AACGCCCC; result = 0.0413
Oligonucleotide = AGTCCGGA; result = 0.081
Oligonucleotide = AGGATAGG; result = -0.21
Oligonucleotide = GGTTTAAA; result = -0.0453
Oligonucleotide = GAATGGAC; result = -0.238
Oligonucleotide = ATCTGCAA; result = -0.295
Oligonucleotide = ATGCCCAG; result = -0.225
Oligonucleotide = CCACACCG; result = 0.065
Oligonucleotide = AAATCATG; result = -0.245
Oligonucleotide = ATCCGCCA; result = -0.0282
Oligonucleotide = CACCCACC; result = -0.163
Oligonucleotide = CTCGAGTC; result = -0.0296
Oligonucleotide = CCACATAA; result = 0.0152
Oligonucleotide = AGAGTGAA; result = -0.298
Oligonucleotide = AAACGGCA; result = 0.192
Oligonucleotide = AAGGTAAC; result = -0.0313
Oligonucleotide = GCCATGTA; result = 0.0196
Oligonucleotide = CAAAGAAC; result = -0.17
Oligonucleotide = ATACCAAC; result = -0.0612
Oligonucleotide = CGCCGGTC; result = 0.429
Oligonucleotide = CACAGGGG; result = -0.155
Oligonucleotide = ATCTGGCG; result = -0.139
Oligonucleotide = AATTAGAT; result = -0.0754
Oligonucleotide = GGTCTGGA; result = -0.0264

Block 3
Target: ABI1, truncated, D143A, DHFR fusion (Arabidopsis thaliana)
Technique: DHFR PCA, deep sequencing
Matrix: yeast
Setting: methotrexate growth selection, single substitutions
With: (+)-ABA 0.39 µM
Relative to: wild-type fitted maximum
Reading: higher = stronger binding
Quantity: relative binding score
Parent: PYL1, truncated, DHFR fusion (Arabidopsis thaliana); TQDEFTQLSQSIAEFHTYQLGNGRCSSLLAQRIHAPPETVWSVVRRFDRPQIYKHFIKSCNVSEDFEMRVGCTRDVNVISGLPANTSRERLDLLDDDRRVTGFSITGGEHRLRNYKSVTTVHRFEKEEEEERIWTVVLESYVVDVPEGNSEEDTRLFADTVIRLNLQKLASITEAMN; partner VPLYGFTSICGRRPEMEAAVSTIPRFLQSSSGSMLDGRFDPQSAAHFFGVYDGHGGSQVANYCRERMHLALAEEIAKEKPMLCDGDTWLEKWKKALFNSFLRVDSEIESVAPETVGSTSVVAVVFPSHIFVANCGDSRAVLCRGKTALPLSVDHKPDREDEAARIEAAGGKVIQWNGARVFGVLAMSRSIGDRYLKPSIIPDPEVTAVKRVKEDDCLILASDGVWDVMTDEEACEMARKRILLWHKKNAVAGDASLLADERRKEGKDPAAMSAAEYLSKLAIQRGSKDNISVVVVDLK
Change = Y115S; result = 3.45%
Change = E128G; result = 72.4%
Change = D159L; result = -18.2%
Change = S104Q; result = -17.7%
Change = L169F; result = -14.5%
Change = A30K; result = 37.2%
Change = S63F; result = 2.07%
Change = L29H; result = 32%
Change = V143N; result = -25.2%
Change = P146G; result = 4.04%
Change = L138M; result = 10.6%
Change = H34D; result = 46.8%
Change = T17E; result = 4.24%
Change = T173Y; result = -26.4%
Change = T160D; result = -3.01%
Change = S9V; result = 30.1%
Change = D144H; result = -0.0985%
Change = I12D; result = -3.09%
Change = N61S; result = 61.9%
Change = L156F; result = -1.14%
Change = W134Y; result = 84.8%
Change = E125W; result = 19.4%
Change = K168Y; result = 13.8%
Change = G71R; result = -3.02%

Block 4
Target: CCNF, cyclin fold, Cln2 fusion (human)
Technique: yeast growth competition, sequencing
Matrix: yeast
Setting: strong parent motif
Relative to: not given
Reading: higher = stronger binding
Quantity: normalised enrichment score
Parent: RBL1 docking peptide (human); GSAKRRLFGEDPP
Change = R6C; result = 5.57
Change = P12C; result = 6.63
Change = A3C; result = 7.49
Change = S2T; result = 7.05
Change = P12H; result = 7.29
Change = G1K; result = 7.81
Change = G1M; result = 7.31
Change = F8T; result = 0.6
Change = R5G; result = 0.599
Change = R5I; result = 0.201
Change = P13Q; result = 7.12
Change = G1S; result = 5.78
Change = E10P; result = 8.1
Change = L7G; result = 0.586
Change = L7W; result = 1.86
Change = P13C; result = 6.15
Change = F8G; result = 0.659
Change = R5K; result = 3.64
Change = G9V; result = 8.94
Change = G1T; result = 8.62
Change = D11R; result = 5.84
Change = R6A; result = 4.91
Change = G9P; result = 8.03

Excerpt of the above (block 2):
Oligonucleotide = AAGGTAAC; result = -0.0313
Oligonucleotide = GCCATGTA; result = 0.0196
Oligonucleotide = CAAAGAAC; result = -0.17
Oligonucleotide = ATACCAAC; result = -0.0612
Oligonucleotide = CGCCGGTC; result = 0.429
Oligonucleotide = CACAGGGG; result = -0.155
Oligonucleotide = ATCTGGCG; result = -0.139
Oligonucleotide = AATTAGAT; result = -0.0754
Oligonucleotide = GGTCTGGA; result = -0.0264
